Published values from different studies.
Numbered parts are unrelated; each lists some results of a single study. Changes are numbered by the printed parent chain.

Sample 1
Target: ATF1, bZIP domain (human)
Method: DHFR protein complementation
Matrix: yeast
Notes: single substitutions, most at no-binding floor
Baseline: wild-type JUN-FOS pair
Direction: higher = stronger binding
Parent: JUN, bZIP domain (human); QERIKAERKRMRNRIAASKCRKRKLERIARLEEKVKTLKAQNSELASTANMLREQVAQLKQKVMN; partner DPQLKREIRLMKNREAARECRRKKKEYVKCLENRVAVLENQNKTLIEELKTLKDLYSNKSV
| Substitution | binding fitness [natural log] |
| --- | --- |
| K36G | -1.5 |
| K34C | -1.58 |
| L45R | -1.5 |
| A29G | -1.44 |
| A49V | -1.52 |
| A57K | -1.47 |
| E32V | -1.42 |
| L52R | -1.51 |
| I28C | -1.56 |
| L45M | -1.54 |
| L52A | -1.55 |
| A49C | -1.47 |
| A46M | -1.28 |

Sample 2
Target: Prothrombin, mature alpha-thrombin (F2, Homo sapiens, UniProt P00734)
Method: aptamer microarray, sandwich
Molecule type: DNA with 2'F-ANA
Matrix: in vitro
Tested at: 200 nM
Notes: whole 15-mer aptamer, many near background
With: Cy3 exosite-II aptamer, 400 nM
Direction: higher = stronger binding
Sequence: GGTTGGTGTGGTTGG
| Modification | mean fluorescence intensity |
| --- | --- |
| 2'F-ANA at 2 4 6 10 11 13 15 | 66 a.u. |
| 2'F-ANA at 3 4 8 9 10 12 14 15 | 212 a.u. |
| 2'F-ANA at 1 2 4 5 9 11 15 | 49.1 a.u. |
| 2'F-ANA at 5 6 7 11 13 14 15 | 46.3 a.u. |
| 2'F-ANA at 2 4 6 7 8 9 10 12 14 15 | 63.3 a.u. |
| 2'F-ANA at 1 5 6 8 11 12 13 14 | 50.8 a.u. |
| 2'F-ANA at 2 4 5 6 7 8 10 11 12 13 | 49.2 a.u. |
| 2'F-ANA at 1 3 5 7 10 11 12 13 14 | 46 a.u. |
| 2'F-ANA at 1 2 3 6 8 9 11 13 14 15 | 65.2 a.u. |
| 2'F-ANA at 1 6 7 9 10 11 12 13 15 | 59.4 a.u. |
| 2'F-ANA at 1 4 6 7 9 12 13 15 | 140 a.u. |
| 2'F-ANA at 4 5 6 7 8 10 11 12 13 14 | 46 a.u. |
| 2'F-ANA at 3 4 5 6 7 8 9 10 13 15 | 74.3 a.u. |
| 2'F-ANA at 1 5 6 8 11 13 | 50.6 a.u. |
| 2'F-ANA at 1 2 4 8 9 12 13 15 | 201 a.u. |
| 2'F-ANA at 1 2 3 5 6 7 12 14 | 42.8 a.u. |
| 2'F-ANA at 2 3 4 6 7 12 14 | 317 a.u. |
| 2'F-ANA at 2 7 8 10 12 13 | 183 a.u. |
| 2'F-ANA at 2 3 6 7 9 13 | 511 a.u. |
| 2'F-ANA at 2 5 7 8 9 11 12 15 | 157 a.u. |
| 2'F-ANA at 1 3 4 7 12 13 14 15 | 92 a.u. |
| 2'F-ANA at 1 3 4 7 8 9 14 | 73.2 a.u. |

Sample 3
Target: ABI1, truncated, D143A, DHFR fusion (Arabidopsis thaliana)
Method: DHFR PCA, deep sequencing
Matrix: yeast
Notes: methotrexate growth selection, single substitutions
With: (+)-ABA 2500 µM
Baseline: wild-type fitted maximum
Direction: higher = stronger binding
Parent: PYL1, truncated, DHFR fusion (Arabidopsis thaliana); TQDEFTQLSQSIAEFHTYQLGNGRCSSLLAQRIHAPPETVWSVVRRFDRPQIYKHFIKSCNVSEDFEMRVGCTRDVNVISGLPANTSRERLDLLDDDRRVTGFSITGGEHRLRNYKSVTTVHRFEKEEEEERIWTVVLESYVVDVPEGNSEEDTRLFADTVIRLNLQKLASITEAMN
| Substitution | relative binding score |
| --- | --- |
| L20C | 102% |
| N77C | 97.3% |
| T39E | 96.5% |
| E131L | 102% |
| N114Q | 90.4% |
| V161R | -3.7% |
| L91H | 37.4% |
| T119Q | 101% |
| T154Y | 47.2% |
| V44T | 76% |
| R24N | 99.1% |
| K54P | 9.44% |
| N149E | 70.9% |
| T120H | 56.7% |
| E174S | 93.1% |
| C72D | 97.7% |

Sample 4
Target: CCNB1, cyclin fold, Cln2 fusion (human)
Method: yeast growth competition, sequencing
Matrix: yeast
Notes: weak parent motif
Baseline: not given
Direction: higher = stronger binding
Parent: HASPIN docking peptide (human); ASLRSVLFGLMNS
| Substitution | normalised enrichment score |
| --- | --- |
| ASLRSVLFGLANS [M11A] | 0.502 |
| ASLRSVLFGLMNA [S13A] | -0.486 |
| ASLRSVLFGLMAS [N12A] | 0.658 |
| ASLRSVAFGLMNS [L7A] | 0.032 |
| ASLRSVLAGLMNS [F8A] | -0.204 |
| ASLRSVLFALMNS [G9A] | 0.0552 |

Sample 5
Target: OGT, full length, His-tagged (human)
Method: phage display, sequencing
Matrix: in vitro
Tested at: 1 µg OGT
Notes: single substitutions, 15-mer displayed peptide, unchanged parent 19.6
Baseline: input library
Direction: higher = stronger binding
Parent: peptide; TAPFYPPAYQIQVFK
| Substitution | fold enrichment [fold] |
| --- | --- |
| TAWFYPPAYQIQVFK [P3W] | 19.1 |
| TAPFYPPNYQIQVFK [A8N] | 1.13 |
| TAPFFPPAYQIQVFK [Y5F] | 32.5 |
| TALFYPPAYQIQVFK [P3L] | 23.7 |
| TAPFYPPAYQFQVFK [I11F] | 0.769 |
| TSPFYPPAYQIQVFK [A2S] | 8.86 |
| TYPFYPPAYQIQVFK [A2Y] | 22.3 |
| TAPFYPPAYIIQVFK [Q10I] | 4.04 |
| TAPFYPPKYQIQVFK [A8K] | 18.3 |
| TAPFYHPAYQIQVFK [P6H] | 0.907 |
| TAPFYPMAYQIQVFK [P7M] | 1.54 |
| TAPFYPPAYQIQVFY [K15Y] | 4.62 |
| TAPFYPPAYQDQVFK [I11D] | 0.412 |
| TAPFYPPAYQIQKFK [V13K] | 1.43 |
| TAPFYPPAYQIFVFK [Q12F] | 10 |
| TAPFYPDAYQIQVFK [P7D] | 1.95 |
| TAPFYPAAYQIQVFK [P7A] | 1.2 |
| TAPFYPPAYVIQVFK [Q10V] | 0.856 |
| TAPFYPPMYQIQVFK [A8M] | 18.5 |
| TAPFYPPAYQIQDFK [V13D] | 0.391 |
| TAPFYPPRYQIQVFK [A8R] | 9.62 |
| TAPSYPPAYQIQVFK [F4S] | 10.6 |
| TAPFYQPAYQIQVFK [P6Q] | 0.625 |
| TAPFYEPAYQIQVFK [P6E] | 0.812 |
| TAPFDPPAYQIQVFK [Y5D] | 0.824 |

Single results of other studies
| Molecule | target | test | system | conditions | how to read | measurement | result |
| --- | --- | --- | --- | --- | --- | --- | --- |
| PhoQ, residues 284 288 289 292 302 303 NLSRDF | PhoP, residues 12 14 15 18 19 TPWLV (Escherichia coli, UniProt P23836) | Sort-seq, item: YFP reporter | E. coli | PhoQ-PhoP variant library, with: 10 µM Mg2+ | baseline: high Mg2+ state, higher = stronger signaling | fold induction | 8.99 |

Some of these lines once more (sample 2):
| Modification | mean fluorescence intensity |
| --- | --- |
| 2'F-ANA at 1 2 3 5 6 7 12 14 | 42.8 a.u. |
| 2'F-ANA at 1 5 6 8 11 12 13 14 | 50.8 a.u. |
| 2'F-ANA at 2 4 5 6 7 8 10 11 12 13 | 49.2 a.u. |
| 2'F-ANA at 5 6 7 11 13 14 15 | 46.3 a.u. |
| 2'F-ANA at 2 7 8 10 12 13 | 183 a.u. |
